Assay results pooled from the literature.
Parts stem from different laboratories: compare values within a part only. Positions count from the first letter of the parent shown.

Block 1
Target: RNA binding protein fox-1 homolog 2, RRM domain, GST-SBP tag (RBFOX2, Homo sapiens, UniProt O43251-10, residues 100-194)
Method: RNA Bind-n-Seq
Molecule type: RNA
Medium: in vitro
Tested at: 365 nM
Notes: natural RNA segment, single round, ends assumed
Reference: no-protein control
Reading: higher = stronger binding
Constant ends, left off below: GGGAGUUCUACAGUCCGACGAUC … UGGAAUUCUCGGGUGCCAA
Target sequence (chain): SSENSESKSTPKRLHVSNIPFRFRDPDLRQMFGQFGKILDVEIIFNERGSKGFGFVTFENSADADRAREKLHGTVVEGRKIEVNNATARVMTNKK
| Oligonucleotide | RBNS enrichment (R) |
| --- | --- |
| AUUAUCUGGGCAUUUCCUUAUUUAUUUACAUUGAAUUCAUAUGUUCUCACCUUUUUAAAAAUUUCCAUACAACUUGAGAAUUAGGUAAGUUCCUUUGUAUACAAAUUUCA | 0.578 |
| CUGCCCUUCACUGGCUAAUCCUGUACUUCUCUCUGUGUUCCUUGAGUGACAGGUGGUAAAACCCUUAAAAAGGGAGGUGUGGGAGGCCCAGGACUUUGGUAACAGGUGAU | 0.35 |
| GGAGGUACACCCGUGUGUGUGCAGAGGCACACCCGUGAGUGUGUGGAGGUACACCCUUGUGUGCGUGGAGGCACACCUGGGCAUAGUCUCCGCCCUUUCCCUGGGGAGCC | 0.589 |
| CUCCUUGCAUUUCCCCAUGCUCCCCACCCCCUGGCAAAAGGCUGGCCAUGCUCUGUUCCCAGCAGCCGCGCAGGUUUCCCCACUGGCUGCAAUGGCCCUACCAAAAGCCA | 1.56 |
| GAAGAGAUUUUUACAGUAACAUAAAAGCAGAAUUCUUAUGUUGAUAUUAACCUGCAAAUGGACUGUCAGCACCAGGUGGUGUCUUCUAACUCUGGUCCUUACAUCACAGA | 0.298 |
| AACCCCCUAAGCCAGCAGGAGCAGGGUAUGCAGAGGCUUUGCCUCUGCUGGCUUAGGGUGAGAAGUACCUCACAAUGGAUGUGAACAUUGGACAGAUUUUAGGAGCAUGA | 2.3 |
| CCCAAGUUGUGUUAAUACUUCAGGUCUGUUUCCCAGACCCAGAAAGCUUUACAGAAAAUCAUUGUAAGACAAUUUAUUAAUUUGAGAAAGUCACCUUGACAGUUCUUUGC | 0.84 |
| UCCCCAACUUUUCCAUCCAGUGCUUAACCUAAAAAACUCCUUAACUCUGCCUUGACCUGAGGAAGACCAUGCUAACUGGUGUUAUUUUGUAUGUACCCUGUGCUUAAUUC | 2.27 |
| UUGUUGGGAUGACUGAUUGGGGCUAUCUGUUGUCAACAAGCGUCGUCUCCACCAUUGUGGAUGGAGGGGGUCUCUGUGCUAGGAGACUCUAUAGACUGCCUCCAGCCGCC | 0.696 |
| UUCGAUCGCUGUGCCUCCGAGGGCGCUUCUAGCUCAUCGUAGAUUUGUGAUGUCAUAGUGCAAACUGCAGUGACCGGUAAAAUGACCUGACAUGUAACCGUUUUCAGGGA | 0.231 |
| UUACUCAAUUCCAGAUAUGGCCGAGGAUGGGUUGAUCACAGACGAUUAGCUGUAAACAGUUUUCGAUAUUUUGGAUAUGGCCAAAAGUCUUUUGAAUCUAAAAUCUUGGA | 0.624 |
| GAACCCAAACUACUUUAGUCCCUAGAAAAGUUUCUGCUCAGAACUGAGGAUGGAAAGAGCCGUAAUGACGUUGGCCUUGCCGUGUUCCUUCUCCUCAGCGCCACACUCAC | 0.335 |

Block 2
Target: ABI1, truncated, D143A, DHFR fusion (Arabidopsis thaliana)
Method: DHFR PCA, deep sequencing
Medium: yeast
Notes: methotrexate growth selection, single substitutions
Together with: (+)-ABA 0.11 µM
Reference: wild-type fitted maximum
Reading: higher = stronger binding
Parent: PYL1, truncated, DHFR fusion (Arabidopsis thaliana); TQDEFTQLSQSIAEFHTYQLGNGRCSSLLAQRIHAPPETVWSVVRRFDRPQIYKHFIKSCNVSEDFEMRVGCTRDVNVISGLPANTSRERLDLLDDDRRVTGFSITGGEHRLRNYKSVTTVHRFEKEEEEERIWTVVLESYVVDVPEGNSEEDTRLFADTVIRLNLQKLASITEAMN; partner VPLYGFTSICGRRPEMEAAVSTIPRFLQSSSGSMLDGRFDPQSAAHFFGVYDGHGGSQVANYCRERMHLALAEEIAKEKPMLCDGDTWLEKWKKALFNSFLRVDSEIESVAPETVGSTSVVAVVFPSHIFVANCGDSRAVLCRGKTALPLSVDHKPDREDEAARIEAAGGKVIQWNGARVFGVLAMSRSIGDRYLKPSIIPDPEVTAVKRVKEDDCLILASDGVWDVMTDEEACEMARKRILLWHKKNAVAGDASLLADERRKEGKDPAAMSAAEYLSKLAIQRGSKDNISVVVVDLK
| Substitution | relative binding score |
| --- | --- |
| T160E | 11% |
| G102I | -4.67% |
| K58A | 15% |
| E174F | -11.7% |
| N22F | 21% |
| V161Q | 37.7% |
| F157E | 8.16% |
| V143T | 15.5% |
| L82V | 19.6% |
| V142M | 4.86% |
| H16D | 0.76% |
| V143G | 4.03% |
| I33K | -6.08% |
| H122T | -5.11% |
| R132L | 22.9% |
| T6K | 55.7% |
| Q19K | 45.5% |
| N165H | 4.46% |
| E131G | 63.5% |
| P83T | 20.3% |
| A170R | 33.1% |
| I52W | 10% |
| K54V | 1.47% |
| V70Q | -0.927% |
| L94E | -5.97% |

Block 3
Target: Ras GTPase-activating protein-binding protein 1, RRM domain (G3BP1, Homo sapiens, UniProt Q13283)
Chain of UniProt Q13283 (whole entry, looked up): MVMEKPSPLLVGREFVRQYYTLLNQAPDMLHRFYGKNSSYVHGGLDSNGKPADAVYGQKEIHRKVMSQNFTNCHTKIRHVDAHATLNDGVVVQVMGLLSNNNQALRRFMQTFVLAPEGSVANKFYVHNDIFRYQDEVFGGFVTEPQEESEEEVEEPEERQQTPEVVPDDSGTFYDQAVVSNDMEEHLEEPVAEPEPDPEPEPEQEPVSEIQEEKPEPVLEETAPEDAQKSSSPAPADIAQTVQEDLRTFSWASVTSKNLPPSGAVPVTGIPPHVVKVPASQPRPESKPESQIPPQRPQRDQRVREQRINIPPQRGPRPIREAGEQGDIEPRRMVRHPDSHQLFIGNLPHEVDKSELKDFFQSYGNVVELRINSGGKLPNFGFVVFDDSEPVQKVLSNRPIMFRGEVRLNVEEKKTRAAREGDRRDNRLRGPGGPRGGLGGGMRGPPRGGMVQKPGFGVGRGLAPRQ
Method: RNA Bind-n-Seq
Molecule type: RNA
Medium: in vitro
Tested at: 1 µM
Notes: whole 134-nt RNA, ends assumed
Together with: 150 mM KCl
Reference: input library
Reading: higher = stronger binding
Constant ends, left off below: GGGAGUUCUACAGUCCGACGAUC … UGGAAUUCUCGGGUGUCAAGG
| Oligonucleotide | log2 enrichment |
| --- | --- |
| UCCUCAAGUCCUGUGCUACACAUCGUAUGUACCGAAUCGGUGGUGGUGGGGAAAGUAUUAUGUUACGCCGUUCGGAUCUGCACUUCCAGC | -0.106 |
| UCCUGUGCUACACAUCGUAUGUACCGAAUCGGGCCCCCCGGCCCCCCGGGCCCCCCGGGGAAAGUAUUAUGUUACGCCGUUCGGAUCUGC | -0.378 |
| CCUCAAGUCCUGUGCUACACAUCGUAUGUACCGAAUCGGGCCGGCCGGCCGGGAAAGUAUUAUGUUACGCCGUUCGGAUCUGCACUUCCA | -0.373 |
| GAAAUUAUGGAAGUGGAAAUUACAAUGAUUUUGGAAAUUAUAACCAGCAACCUUCUAACUACGGUCCAAUGAAGAGUGGAAACUUUGGUG | -0.155 |
| CACAGACAACACGCACCCACACAGACACAGAGGGAAGGGGUUGGGAUGGGGACAGGGUGCACAGCAGGGCGGGGUAGGACCCCAGCCCCA | -0.308 |
| GUCCUGUGCUACACAUCGUAUGUACCGAAUCGGCCCCCCGGCCCCCCGGCCCCCCGGGAAAGUAUUAUGUUACGCCGUUCGGAUCUGCAC | -0.604 |
| UGUUCCUGUUGAUGAAAAUCUUUUCACUGGAGAGGAUUUGGAUGAACUAGAAGAAGAAUUAAAUACACUUGAUUUAGAAGAAUGACACCA | -0.13 |
| CAAGUCCUGUGCUACACAUCGUAUGUACCGAAUCGGAAAAAGGUUUGGUUUUUGGAAAGUAUUAUGUUACGCCGUUCGGAUCUGCACUUC | -0.232 |
| AAGUCCUGUGCUACACAUCGUAUGUACCGAAUCGGGAAAAAAAGGGUUUGGGAGGGAAAGUAUUAUGUUACGCCGUUCGGAUCUGCACUU | 0.654 |
| CCUGUGCUACACAUCGUAUGUACCGAAUCGGGAAAAAAAGGAAAAAAAGGAAAAAAAGGGGAAAGUAUUAUGUUACGCCGUUCGGAUCUG | 0.0937 |
| AGUCCUGUGCUACACAUCGUAUGUACCGAAUCGGAAAAAAGGAAAAAAGGAAAAAAGGAAAGUAUUAUGUUACGCCGUUCGGAUCUGCAC | 0.0104 |
| CUCAAGUCCUGUGCUACACAUCGUAUGUACCGAAUCGGAAAAAGGUUUGGUGGAAAGUAUUAUGUUACGCCGUUCGGAUCUGCACUUCCA | -0.269 |
| ACCAUGCAGGUGGGCAUCUUUGGGAAGUGGGGCAAGGGGGGGAUAGGGAGGGGGGUAACACUUUGGGAACAGAUGGUCCCAGGUCGUUUC | 1.05 |
| CACAGACAACACGCACCCACACAGACACAGAGGGAAGGGGUUGGGAUGGGGACAGGGUGCACAUCAGGGCGGGGUAGGACCCCAGCCCCU | 0.148 |

Block 4
Target: Interferon regulatory factor 3, full length, phosphomimetic (IRF3, Homo sapiens, UniProt Q14653, residues 1-427, S386D/S396D/S398D/S402D/T404D/S405D)
Chain of UniProt Q14653 (whole entry, unmodified, looked up): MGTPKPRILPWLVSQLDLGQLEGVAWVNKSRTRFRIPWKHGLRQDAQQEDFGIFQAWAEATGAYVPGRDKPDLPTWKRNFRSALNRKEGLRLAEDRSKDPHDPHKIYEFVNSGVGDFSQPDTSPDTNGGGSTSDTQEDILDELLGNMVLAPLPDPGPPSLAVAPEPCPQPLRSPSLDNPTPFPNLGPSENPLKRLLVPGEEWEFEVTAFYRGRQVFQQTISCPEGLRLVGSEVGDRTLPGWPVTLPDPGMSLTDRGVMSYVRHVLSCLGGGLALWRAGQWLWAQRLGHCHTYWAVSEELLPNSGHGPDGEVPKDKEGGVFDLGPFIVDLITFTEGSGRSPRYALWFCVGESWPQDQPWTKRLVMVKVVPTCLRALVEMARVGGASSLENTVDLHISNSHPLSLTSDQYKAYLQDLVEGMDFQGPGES
Method: protein-binding microarray
Molecule type: double-stranded DNA, one strand shown
Medium: in vitro
Tested at: 2540 nM top
Notes: 60-bp whole probe
Together with: salmon DNA 0.4 mg/ml
Reference: random background probes
Reading: higher = stronger binding
Constant ends, left off below: GCCTAGCAC … GTCTTGATTCGCTTGACGCTGCTG
| Oligonucleotide | fitted relative affinity |
| --- | --- |
| TCATCTAGGTTTTCTGGAACTGTGCTA | 0.276 z-score |
| GACGGTACCCTACTGCTGACGTGCTAG | 1.14 z-score |
| TTAGCTATCGACTTTCGGTTAGTGCTA | 1.29 z-score |
| GACGATATCGGGTATCGAGATGTGCTA | 0.261 z-score |
| GACGAACTGAGTATCGAGGCGTGCTAG | -0.0403 z-score |
| TAAGGACTGGACACTGGGTTAGTGCTA | -0.84 z-score |
| ATGCTTTACTCACTCGGAAAGTGCTAG | 0.0858 z-score |
| TTAGCTTTCAGTATCGATTAGTGCTAG | 2.75 z-score |
| GTCGGACTGGGACTGGGGACGTGCTAG | -0.355 z-score |
| GACGATATCGGGTCTGGAGACGTGCTA | 0.211 z-score |
| TCACTTCTGGATTTTTTACTGTGCTAG | 1.02 z-score |
| AGTATGAGTTGCCCTTTCCCGTGCTAG | 3.98 z-score |
| AGAGCTGTCCTTTGCAACAGGTGCTAG | 0.0947 z-score |
| GGTTGTTTCTAATATTCTGCTGTGCTA | 1.32 z-score |
| GACGCTTCCGGTTTCGGGACGTGCTAG | 4.45 z-score |
| GACGGTATCGTCTATCGGGACGTGCTA | 0.571 z-score |
| TCATTTTTGGTAATAGTACTGTGCTAG | 1.3 z-score |
| GACAGACTGCTTCTCCTGACGTGCTAG | -0.198 z-score |
| TTAGGTATCTTTTTCCTTTAGTGCTAG | 3.42 z-score |
| GACGGTATCGGGTTTCGGGCCGTGCTA | 2.42 z-score |
| TTAGGTATCGGAGTGGGTTAGTGCTAG | 1.18 z-score |
| TTAGATCTGGGGACTGGATTAGTGCTA | -0.692 z-score |
| GACGGCCTGCTACTGCTGACGTGCTAG | -0.873 z-score |

Block 5
Target: Sal-like protein 4, full length isoform B (SALL4, Homo sapiens, UniProt Q9UJQ4-2, residues 1-616)
Method: universal PBM
Molecule type: double-stranded DNA, one strand shown
Medium: in vitro
Tested at: not given
Notes: 8-mer, flanks averaged, mean of replicates
Reading: higher = stronger binding
| Oligonucleotide | E-score |
| --- | --- |
| AGGCGTCG | -0.21 |
| AGCTGTCA | 0.016 |
| CAAACCAG | -0.0927 |
| CCCAATAC | 0.116 |
| GGTAGGAC | -0.222 |
| GTGCTCTA | -0.237 |
| CCTGTTGC | -0.0411 |
| CATCCGGA | -0.14 |
| ACTACAAG | 0.141 |
| ATCTTTAG | 0.0896 |
| CCTCAATA | 0.117 |
| CTTATTCA | 0.164 |
| GACCCTTA | 0.0261 |
| CAGAAACA | 0.142 |
| AAGCTTCT | 0.0885 |
| ACCCCATC | -0.158 |
| CCACGGCG | -0.237 |
| AGCCCCTC | -0.172 |
| CATGTAAG | 0.148 |
| AGGGGAAC | -0.191 |
| AAAGATTC | 0.157 |
| AAGCTCGA | -0.0316 |
| AGTCACGA | -0.00245 |
| AGAGCTGC | -0.316 |
| CCTTCTCG | -0.19 |

Some of these lines once more (block 2):
| Substitution | relative binding score |
| --- | --- |
| L82V | 19.6% |
| F157E | 8.16% |
| I52W | 10% |
| H16D | 0.76% |
| K54V | 1.47% |
| H122T | -5.11% |
| Q19K | 45.5% |
| R132L | 22.9% |
| V161Q | 37.7% |
| P83T | 20.3% |
| G102I | -4.67% |
| I33K | -6.08% |
| A170R | 33.1% |
| E174F | -11.7% |
| V142M | 4.86% |
